Published values from different studies.
Numbered parts are unrelated; each lists some results of a single study.

Series 1
Target: Replicase polyprotein 1ab, nsp13 helicase (rep, Severe acute respiratory syndrome coronavirus 2, UniProt P0DTD1)
Mode: inhibitor
Tested at: 20 µM
NC1CCN(c2c(F)cc3c(=O)c(C(=O)O)cn(C4CC4)c3c2Cl)C1 (centres unmarked) gave an inhibition of 1.14%.
With NC(=O)CC[C@H](N)C(=O)O the inhibition was 3.08%.
N=C(N)NCCC[C@@H](NC(=O)[C@@H]1CCCN1C(=O)[C@@H]1CSSCCC(=O)N[C@@H](Cc2ccc(O)cc2)C(=O)N[C@@H](Cc2ccccc2)C(=O)N[C@@H](CCC(N)=O)C(=O)N[C@@H](CC(N)=O)C(=O)N1)C(=O)NCC(N)=O has an inhibition of 5.23%.
For COC(=O)C1=CO[C@@H](O[C@@H]2O[C@H](CO)[C@@H](O)[C@H](O)[C@H]2O)[C@@H]2C(CO)=CC[C@H]12, the inhibition was 2.12%.
With CCOC(=O)NNc1ccc(N(CC)CC(C)O)nn1 (centres unmarked) the inhibition was 8.38%.
CCCC(CCC)C(N)=O gave an inhibition of 2.44%.
Clc1ccc(C(Cn2ccnc2)OCc2c(Cl)cccc2Cl)c(Cl)c1 (centres unmarked) gave an inhibition of 3.7%.
COc1ccc(-c2ccc3ncc4c(c3c2)n(-c2ccc(N3CCNCC3)c(C(F)(F)F)c2)c(=O)n4C)cn1 gave an inhibition of 20.9%.
CN(C)/N=N/c1[nH]cnc1C(N)=O has an inhibition of 4.59%.
For COc1ccc(S(=O)(=O)Nc2cc(Cl)cc(Cl)c2OC)cc1N1CCNCC1, the inhibition was 1.23%.
With C[C@@H](N[C@H]1CCCC[C@@H]1NC(=O)c1ccc(Cl)cc1)c1cccc2ccccc12 the inhibition was 1.09%.
The inhibition of CC(C)[C@@H](C)/C=C/[C@@H](C)[C@H]1CC[C@H]2/C(=C/C=C3\C[C@@H](O)CC[C@@H]3C)CCC[C@]12C is reported as -2.77%.
The inhibition of S=c1[nH]cnc2nc[nH]c12 is reported as 5.28%.
The inhibition of CC1(C)N=C(N)N=C(N)N1OCCCOc1cc(Cl)c(Cl)cc1Cl is reported as -0.46%.
For CC(C)(C)CC(=O)Nc1c(F)cc(C(=O)N=c2sccn2COP(=O)(O)O)cc1F, the inhibition was -1.07%.
The inhibition of CCOC(=O)[C@H](CCc1ccccc1)N[C@@H](C)C(=O)N1Cc2cc(OC)c(OC)cc2C[C@H]1C(=O)O is reported as 1.75%.
O=C(NC1(c2ccccc2)CC1)c1c(CN2CCC(N3CCCCC3)CC2)c(-c2cccc(C(F)(F)F)c2)nc2cc(Br)ccc12 has an inhibition of 5.89%.
For O=C(O)C(Cc1c[nH]c2ccccc12)N1C(=O)c2ccccc2C1=O (centres unmarked), the inhibition was -0.57%.
NCC(=O)N1C[C@H](NC(=O)c2ccccc2)C[C@H]1C(=O)O gave an inhibition of -1.01%.
The inhibition of O=C(Nc1ccccc1)OCC(CN1CCCCC1)OC(=O)Nc1ccccc1 (centres unmarked) is reported as 1.62%.
With C[C@@H](Nc1cc(F)cc(F)c1)c1cc(C(=O)N(C)C)cc2c(=O)cc(N3CCOCC3)oc12 the inhibition was 3.07%.
CC(C)[C@H]1C(=O)N[C@@H](CCCNC(=N)N)C(=O)NCC(=O)N[C@@H](CC(=O)O)C(=O)N[C@H](Cc2ccccc2)C(=O)N1C gave an inhibition of 7.72%.
For Cc1ccc2c(c1)C1(CCN(CCc3nc(-c4ccccc4)oc3C)CC1)OC(=O)N2, the inhibition was -0.67%.
With C=CC(=O)Nc1ccc2ncnc(Nc3cccc(Br)c3)c2c1 the inhibition was 2.41%.
With CCCOc1ccc(Br)cc1-c1cc(-c2ccc(Cl)cc2)[nH]c1-c1ccncc1 the inhibition was 4.64%.

Series 2
Target: Sal-like protein 4, full length isoform A (SALL4, Homo sapiens, UniProt Q9UJQ4, residues 1-1053)
Chain of UniProt Q9UJQ4 (whole entry, looked up): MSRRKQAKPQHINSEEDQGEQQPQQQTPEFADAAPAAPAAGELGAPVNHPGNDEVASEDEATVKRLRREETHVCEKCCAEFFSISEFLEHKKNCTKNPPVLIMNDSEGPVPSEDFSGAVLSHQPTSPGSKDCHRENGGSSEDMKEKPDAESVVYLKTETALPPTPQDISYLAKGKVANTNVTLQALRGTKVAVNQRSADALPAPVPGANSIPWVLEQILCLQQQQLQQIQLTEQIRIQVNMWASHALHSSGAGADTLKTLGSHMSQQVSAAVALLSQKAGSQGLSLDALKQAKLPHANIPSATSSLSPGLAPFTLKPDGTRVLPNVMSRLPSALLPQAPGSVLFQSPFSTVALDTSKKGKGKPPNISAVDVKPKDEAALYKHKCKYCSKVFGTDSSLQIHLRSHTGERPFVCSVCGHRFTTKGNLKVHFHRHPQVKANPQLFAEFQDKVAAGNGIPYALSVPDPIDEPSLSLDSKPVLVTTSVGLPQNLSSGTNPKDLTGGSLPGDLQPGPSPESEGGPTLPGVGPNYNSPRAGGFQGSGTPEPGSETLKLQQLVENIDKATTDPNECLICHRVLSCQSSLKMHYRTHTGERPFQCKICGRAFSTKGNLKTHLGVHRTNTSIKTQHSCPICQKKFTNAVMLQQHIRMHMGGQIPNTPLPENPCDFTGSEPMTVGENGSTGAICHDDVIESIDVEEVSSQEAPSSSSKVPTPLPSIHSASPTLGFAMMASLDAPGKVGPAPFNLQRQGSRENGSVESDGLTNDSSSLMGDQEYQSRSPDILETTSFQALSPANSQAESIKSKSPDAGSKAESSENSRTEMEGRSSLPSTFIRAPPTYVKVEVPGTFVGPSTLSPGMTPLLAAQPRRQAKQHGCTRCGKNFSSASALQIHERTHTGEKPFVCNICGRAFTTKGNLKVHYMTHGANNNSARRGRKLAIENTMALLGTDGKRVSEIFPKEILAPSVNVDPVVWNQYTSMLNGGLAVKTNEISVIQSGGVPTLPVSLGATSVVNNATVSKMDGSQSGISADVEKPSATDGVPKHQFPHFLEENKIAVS
Technique: universal PBM
Molecule type: double-stranded DNA, one strand shown
Sample: in vitro
Tested at: 600 nM
Notes: 8-mer, flanks averaged, mean of replicates
Reading: higher = stronger binding
`TGATCCCA` has an E-score of -0.071.
The E-score of `AGCTACTA` is reported as 0.114.
For `CACTAGCG`, the E-score was -0.201.
For `GCCGAAGC`, the E-score was -0.27.
For `CTAAGCAC`, the E-score was -0.0852.
`GACCAATA` has an E-score of 0.202.
`TTAAACAA` has an E-score of 0.204.
`AGTACACC` gave an E-score of -0.0145.

Series 3
Target: Replicase polyprotein 1ab, main protease (rep, Severe acute respiratory syndrome coronavirus 2, UniProt P0DTD1)
Effect on: enzyme activity
Mode: inhibitor
Notes: with DTT
Cc1c(OCC(F)(F)F)ccnc1C[S+]([O-])c1nc2ccccc2[nH]1 (centres unmarked) gave an IC50 of > 20000 nM.
CC(=O)[O][Hg][c]1ccccc1 has an IC50 of 2000 nM.
The IC50 of CC(CN1CC(=O)NC(=O)C1)N1CC(=O)NC(=O)C1 (centres unmarked) is reported as 190 nM.
With O=C1OC2(c3cc(I)c(O)c(I)c3Oc3c2cc(I)c(O)c3I)c2c(Cl)c(Cl)c(Cl)c(Cl)c21 the IC50 was 8000 nM.

Series 4
Target: Histone acetyltransferase KAT6A, both winged helices, GST fusion (KAT6A, Homo sapiens, UniProt Q92794, residues 1-181)
Technique: protein binding microarray
Molecule type: double-stranded DNA, one strand shown
Sample: in vitro
Tested at: not given
Notes: 8-mer, flanks averaged, mean of 2 arrays, mostly near background
Relative to: not given
Reading: higher = stronger binding
Construct (chain): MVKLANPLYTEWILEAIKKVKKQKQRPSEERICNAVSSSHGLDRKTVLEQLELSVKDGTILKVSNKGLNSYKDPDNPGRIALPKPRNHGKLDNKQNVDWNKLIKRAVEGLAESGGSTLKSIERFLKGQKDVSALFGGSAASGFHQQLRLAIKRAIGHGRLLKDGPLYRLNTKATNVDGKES
The E-score of `CGAAACTA` is reported as 0.0354.
The E-score of `GGGTACGA` is reported as -0.0937.
For `ATTTTTAA`, the E-score was -0.0569.
The E-score of `AGGGGCCG` is reported as 0.0457.
The E-score of `CGAAGGTC` is reported as 0.0443.
For `TCCCACCA`, the E-score was -0.257.
`AGTACCTC` has an E-score of -0.144.
`AGACTACA` gave an E-score of -0.0862.

Series 5
Target: Interferon regulatory factor 5, full length, phosphomimetic (IRF5, Homo sapiens, UniProt Q13568-2, residues 1-514, K96S/S451D/S453D/S456D/S462D)
Technique: protein-binding microarray
Molecule type: double-stranded DNA, one strand shown
Sample: in vitro
Tested at: 250 nM
Notes: 60-bp whole probe
Added: salmon DNA 0.4 mg/ml
Relative to: random background probes
Reading: higher = stronger binding
Shared flanks, not repeated: GCCTAGCAC … GTCTTGATTCGCTTGACGCTGCTG
The log fluorescence of `GACGGTTTCGGTCTCGGGGCGTGCTAG` is reported as 9.74 z-score.
`CTGTACATCTATGTAGAAAGGTGCTAG` has a log fluorescence of 0.234 z-score.
`GACGGCCTGGGTTTCGGGACGTGCTAG` gave a log fluorescence of 2.31 z-score.
The log fluorescence of `TTAGTTTTCGACTATCGGTTAGTGCTA` is reported as 8.41 z-score.
`GACTGTTTCGGACTGGGGACGTGCTAG` gave a log fluorescence of 3.97 z-score.
With `GACGCTATCAGTATCGAGACGTGCTAG` the log fluorescence was 3.58 z-score.
`TCCTCTTTTTTGTTCCACGCGTGCTAG` gave a log fluorescence of 1.05 z-score.
`GACGCTCTCGGTTTCGGGACGTGCTAG` gave a log fluorescence of 3.51 z-score.

Some of these lines once more (series 1):
The inhibition of CC1(C)N=C(N)N=C(N)N1OCCCOc1cc(Cl)c(Cl)cc1Cl is reported as -0.46%.
For COC(=O)C1=CO[C@@H](O[C@@H]2O[C@H](CO)[C@@H](O)[C@H](O)[C@H]2O)[C@@H]2C(CO)=CC[C@H]12, the inhibition was 2.12%.
The inhibition of CC(C)[C@@H](C)/C=C/[C@@H](C)[C@H]1CC[C@H]2/C(=C/C=C3\C[C@@H](O)CC[C@@H]3C)CCC[C@]12C is reported as -2.77%.
COc1ccc(-c2ccc3ncc4c(c3c2)n(-c2ccc(N3CCNCC3)c(C(F)(F)F)c2)c(=O)n4C)cn1 gave an inhibition of 20.9%.
